Measured values pooled from the literature.
Compare with care: the assays were run in different laboratories. ± gives the spread as reported.
Sequence of UniProt P46109 (whole entry, looked up): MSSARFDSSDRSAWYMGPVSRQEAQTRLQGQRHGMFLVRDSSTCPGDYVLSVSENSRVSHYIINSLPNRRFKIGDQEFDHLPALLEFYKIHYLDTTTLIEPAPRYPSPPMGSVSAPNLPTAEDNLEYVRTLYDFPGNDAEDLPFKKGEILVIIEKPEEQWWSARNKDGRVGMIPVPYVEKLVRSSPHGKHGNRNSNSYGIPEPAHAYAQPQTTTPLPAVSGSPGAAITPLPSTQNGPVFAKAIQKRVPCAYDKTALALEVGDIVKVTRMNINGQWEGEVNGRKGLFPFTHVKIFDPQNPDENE

SMILES	target or system	assay	system	setting	how to read	quantity	value
[Cl-].[Cl-].[Pt+2].[Ru+2].c1ccc(-c2nccnc2-c2ccccn2)nc1.c1cnc2c(c1)ccc1cccnc12.c1cnc2c(c1)ccc1cccnc12	Danio rerio		embryos	60 µM, 48 h		hatching rate	6.67 ± 3.5%
CCOC(=O)C1=C(CN2CCC[C@@H]2C(=O)Nc2cccc(B(O)O)c2)NC(c2nccs2)=N[C@H]1c1ccc(F)cc1Br	hepatitis B virus		HePAD38		baseline: CC50 over EC50	selectivity index	483
Cc1cc(C(=O)NC(C)(C)COc2cccc3c2C(N)=NS(=O)(=O)N3)cc(C)n1	Escherichia coli	Ames test, confirmatory	WP2 uvrA	3333 µg/plate, added: rat liver S9	baseline: solvent control	revertant ratio	1
CNC(=O)c1c(N(C)N=O)ncn1C	Salmonella typhimurium	plate incorporation	TA1535, water	50 µg/plate, without S9		revertant colonies per plate	30 ± 5
CC(=O)N1CCC(C(=O)N2CCN3C(=O)c4cc(-c5ccccc5)ccc4NC(=O)C3C2)CC1 (centres unmarked)	Salmonella typhimurium		TA100	1.58 µg/plate, added: rat liver S9	baseline: vehicle control	revertant fold increase	0.9
Cc1ccc(C(C)Nc2nc(N3CCNCC3)nc3ccccc23)cc1 (centres unmarked)	Vero-E6	CellTiter-Glo ATP		concentration not given, 72 h, retest 8-point duplicates	baseline: DMSO 0%, hyamine -100%, more negative, more toxic	cytotoxicity efficacy	0%
COc1cccc(-c2n[nH]c(SCc3ccccn3)n2)c1OC	Salmonella typhimurium	Ames test, preincubation	TA100	2.0 mg/plate, without S9		revertant colonies per plate	117
CC(Nc1nc(N2CCN(CCN)CC2)nc2ccccc12)c1ccccc1 (centres unmarked)	Vero-E6	CellTiter-Glo ATP		concentration not given, 72 h, retest 8-point duplicates	baseline: DMSO 0%, hyamine -100%, more negative, more toxic	cytotoxicity efficacy	0%
O=[N+]([O-])c1ccc(N2CCC(NCCC(O)c3ccc(F)c4ccccc34)CC2)c(C(F)(F)F)c1 (centres unmarked)	Salmonella typhimurium	SOS response, SOS/umu test	TA1535/pSK1002, TGA medium	0.000488 mg/mL, 4 h, without S9	baseline: untreated	induction factor	0.7
C[C@H]1CN(c2n[nH]c3nc(N[C@H]4CC[C@H](NS(=O)(=O)CCC(F)(F)F)CC4)ncc23)CCO1	Crk-like protein (Homo sapiens, UniProt P46109)	competitor, Kinobeads competition	human cell extract	0.032 µM	baseline: vehicle	relative abundance	1.04
O=[N+]([O-])c1ccc(NC2CCNCC2)c(C(F)(F)F)c1	Salmonella typhimurium	SOS/umu test	TA1535/pSK1002	0.008 mg/mL, 4 h, without S9, full range		survival	125%
[Cl-].[Cl-].[Pt+2].[Ru+2].c1ccc(-c2nc3ccccc3nc2-c2ccccn2)nc1.c1cnc2c(c1)ccc1cccnc12.c1cnc2c(c1)ccc1cccnc12	Danio rerio		embryos	60 µM, 96 h		survival rate	63.3 ± 3.4%
Fc1ccc(C2=CCNCC2)cc1	Salmonella typhimurium	SOS/umu test	TA1535/pSK1002	0.25 mg/mL, 4 h, without S9, full range		survival	93.8%
CCOC(=O)C1=C(CN2CCC[C@H]2C(=O)Nc2ccc(B(O)O)cc2)NC(c2nccs2)=N[C@H]1c1ccc(F)cc1Br	hepatitis B virus		HepDES19		baseline: CC50 over EC50	selectivity index	32
